Published values from different studies.
Organism: Bacillus subtilis

CC[C@H](C)CCCCC(=O)N[C@@H](CCN)C(=O)N[C@H](C(=O)N[C@@H](CCN)C(=O)N[C@H]1CCNC(=O)[C@H]([C@@H](C)O)NC(=O)[C@H](CCN)NC(=O)[C@H](CCN)NC(=O)[C@H](CC(C)C)NC(=O)[C@@H](Cc2ccccc2)NC(=O)[C@H](CCN)NC1=O)[C@@H](C)O
MIC (broth microdilution; ATCC 6633; 24 h, 37 °C): 4 µg/mL

CC[C@H](C)CCCCC(=O)N[C@@H](CCN)C(=O)N[C@H](C(=O)N[C@@H](CCN)C(=O)N[C@H]1CCNC(=O)[C@H]([C@@H](C)O)NC(=O)[C@H](CCN)NC(=O)[C@H](CCN)NC(=O)[C@H](CC(C)C)NC(=O)[C@@H](Cc2ccccc2)NC(=O)[C@H](CCN)NC1=O)[C@@H](C)O
MIC (broth microdilution; ATCC 6633; 24 h): 1.5 µM

N=C(N)NCCC[C@H](NC(=O)[C@H](Cc1c[nH]c2ccccc12)NC(=O)[C@@H](N)CCCNC(=N)N)C(=O)N[C@@H](Cc1c[nH]c2ccccc12)C(=O)N[C@@H](Cc1ccccc1)C(=O)N[C@@H](CCC(N)=O)C(=O)N[C@@H](Cc1ccccc1)C(=O)N[C@@H](CCC(N)=O)C(=O)N[C@@H](Cc1ccccc1)C(=O)N[C@@H](CCCCN)C(N)=O
MIC (broth microdilution, optical density): 8.8 µM

CC(C)C[C@@H]1NC(=O)[C@H](Cc2ccccc2)NC(=O)[C@H](Cc2ccc(O)cc2)NC(=O)[C@H](CC(C)C)NC(=O)[C@H](CCC(=O)O)NC(=O)[C@H](Cc2ccccc2)NC(=O)[C@H](CCCNC(=N)N)NC(=O)[C@H](CCC(N)=O)NC(=O)[C@H](CC(C)C)NC(=O)[C@H](CC(=O)O)NC(=O)[C@@H]2CCCN2C(=O)[C@H](CCCCN)NC(=O)[C@H](C(C)C)NC(=O)[C@H](CC(N)=O)NC(=O)[C@H](Cc2ccc(O)cc2)NC(=O)[C@H]([C@@H](C)O)NC(=O)[C@@H](N)CSSC[C@@H](C(=O)O)NC(=O)[C@H]([C@@H](C)O)NC(=O)[C@H](C(C)C)NC(=O)[C@H]([C@@H](C)O)NC(=O)CNC1=O
MIC (broth dilution; CGMCC strain; 24 h): > 40 µM

c1ccc(CCOC2CCCc3c2[nH]c2ccccc32)cc1 (stereo not shown)
MIC (broth microdilution; 168): 512 µg/mL

CC[C@H](C)[C@H](NC(=O)[C@H](CC(C)C)NC(=O)[C@H](CCCCN)NC(=O)[C@@H](NC(=O)[C@H](C)NC(=O)[C@H](CCC(=O)O)NC(=O)[C@H](Cc1c[nH]cn1)NC(=O)[C@@H](NC(=O)[C@H](CCCCN)NC(=O)[C@H](CCC(N)=O)NC(=O)[C@H](Cc1ccccc1)NC(=O)[C@@H](NC(=O)[C@H](CCCCN)NC(=O)[C@@H](N)CCCCN)C(C)C)[C@@H](C)CC)[C@@H](C)CC)C(N)=O
MIC (broth microdilution; KCTC 1998; 18 h, 37 °C): 32 µM

CC[C@H](C)[C@H](NC(=O)[C@@H](NC(=O)[C@H](Cc1ccccc1)NC(=O)CNC(=O)[C@H](CCC(N)=O)NC(=O)[C@H](CCCCN)NC(=O)[C@H](C)N)C(C)C)C(=O)N[C@@H](Cc1ccc(O)cc1)C(=O)N[C@@H](CCCNC(=N)N)C(=O)N[C@H](C(=O)N[C@@H](CCCNC(=N)N)C(=O)N[C@H](C(=O)N[C@@H](CCCNC(=N)N)C(=O)N[C@@H](CCCNC(=N)N)C(=O)NCC(=O)N[C@@H](CC(N)=O)C(=O)N[C@@H](CCCNC(=N)N)C(=O)N[C@@H](CCCCN)C(N)=O)C(C)C)C(C)C
MIC (broth dilution; KCTC 3068): 3.1 µM

CCCCCCCNC(=O)CP(=O)(O)O
MIC (ATCC 23857): > 200 µg/mL

CC[C@H](C)[C@H](N)C(=O)N[C@@H](CCCNC(=N)N)C(=O)N[C@H](C(=O)N[C@@H](Cc1c[nH]c2ccccc12)C(=O)N[C@@H](Cc1ccccc1)C(=O)N[C@H](C(=O)N[C@@H](CCCCN)C(=O)N[C@H](C(=O)N[C@@H](CCCNC(=N)N)C(=O)N[C@@H](CCCCN)C(=O)N[C@@H](Cc1c[nH]c2ccccc12)C(=O)N[C@@H](CCCCN)C(=O)N[C@@H](C)C(=O)N[C@H](C(=O)N[C@@H](Cc1ccc(O)cc1)C(=O)N[C@@H](Cc1c[nH]cn1)C(=O)N[C@H](C(N)=O)[C@@H](C)O)[C@@H](C)CC)C(C)C)[C@@H](C)CC)C(C)C
MIC (broth dilution; KCTC 3068): 50 µM

CCCCCCCCCCCCCCNC(=O)CP(=O)(O)O
MIC (ATCC 23857): 50 µg/mL

For quick reference, copied from above:
CC[C@H](C)[C@H](NC(=O)[C@H](CC(C)C)NC(=O)[C@H](CCCCN)NC(=O)[C@@H](NC(=O)[C@H](C)NC(=O)[C@H](CCC(=O)O)NC(=O)[C@H](Cc1c[nH]cn1)NC(=O)[C@@H](NC(=O)[C@H](CCCCN)NC(=O)[C@H](CCC(N)=O)NC(=O)[C@H](Cc1ccccc1)NC(=O)[C@@H](NC(=O)[C@H](CCCCN)NC(=O)[C@@H](N)CCCCN)C(C)C)[C@@H](C)CC)[C@@H](C)CC)C(N)=O
MIC (broth microdilution; KCTC 1998; 18 h, 37 °C): 32 µM
